Measured values gathered from unrelated publications.
± marks the error that the study gave.

COc1cc(CNC(=O)C[C@H](C)CCC=C(C)C)ccc1OCc1cn(-c2ccc(C#N)cc2)nn1 has a growth percent of 95% (NCI-H322M; SRB; 10 µM, 48 h).
CC(C)c1c(-c2cccc3[nH]ccc23)[nH]c(C(=O)O)c1-c1c(Cl)ccc2[nH]ccc12 gave a CD38-positive cells of 90% (TEX cells; concentration not given).
N=C(N/N=C/c1ccccc1)N/N=C/c1ccccc1 has a selectivity ratio of 0.8 (PANC-1; crystal violet; 72 h; relative to: IC50 IMR-90 over IC50 PANC-1).
Under “depolarised mitochondria cells”, CCCC(CCC)C(=O)[O][Pt]([NH2])([NH2])([Cl])([Cl])[O]C(=O)C(Cl)Cl is recorded as 30 to 40% (PSN1; 1 µM, 24 h).
Under “lowest effective concentration”, C(=C/c1ccccc1)/c1ccccc1 is recorded as 10 µM (KG-1a; apoptosis, item: caspase-3 activity; 24 h, lowest dose with significant induction; relative to: vehicle).
For Nc1ncc(-c2cnn(C3CCNCC3)c2)cc1-c1nc2ccc(O)cc2o1, phosphorylation read “not detected” (HEL 92.1.7 (JAK2 V617F); western blot, item: STAT3 and STAT5; 10 µM, 48 h).
CC(CCC(=O)NCc1ccc(C(=O)NO)cc1)C1CCC2C3C(O)CC4CC(O)CCC4(C)C3CCC12C (stereo not shown) — result for cell proliferation: “inhibited” (polycystic liver disease cholangiocytes (human); CFSE flow cytometry; 2 and 10 µM, 48 h).
With Cc1c(C)n(-c2c(C(C)C)cccc2C(C)C)c(=[Se])n1-c1c(C(C)C)cccc1C(C)C.[Cl][Au] the resistance factor was 0.6 (A2780 ADR; MTT; relative to: A2780 ADR over A2780).
For CCOC(=O)C1NC(c2ccc[n+](C)c2)C23c4c5c6c7c8c9c(c%10c%11c2c2c4c4c%12c5c5c6c6c8c8c%13c9c9c%10c%10c%11c%11c2c2c4c4c%12c%12c5c5c6c8c6c8c%13c9c9c%10c%10c%11c2c2c4c4c%12c5c6c5c8c9c%10c2c45)C713 (stereo not shown), the CC50 was 10.9 µM (BCBL1; cell growth or viability; 24 h).
For COc1cc(CNC(=O)C[C@H](C)CCC=C(C)C)ccc1OCc1cn(-c2ccc(Cl)c(Cl)c2)nn1, the growth percent was 99% (SK-OV-3 ovarian cancer cells; SRB; 10 µM, 48 h).
CC(=O)OC[C@H]1O[C@@H](Sc2sc(C(=O)c3ccc(Br)cc3)c(N)c2-c2nc3ccccc3s2)[C@H](OC(C)=O)[C@@H](OC(C)=O)[C@@H]1OC(C)=O has a growth of 63.1% (KM12; SRB; 10 µM, 48 h; relative to: untreated).
C=CCc1ccc(O)c(-c2cc(CC=C)ccc2OCCCCCCCCCC[P+](c2ccccc2)(c2ccccc2)c2ccccc2)c1: “hydroethidine oxidation products” “increased” (A-375; HPLC, item: 2-hydroxyethidium; 0.5 µM, 24 h).
COc1cc(CNC(=O)C[C@H](C)CCC=C(C)C)ccc1OCc1cn(-c2ccc([N+](=O)[O-])cc2)nn1 gave a growth percent of 80.1% (SK-OV-3 ovarian cancer cells; SRB; 10 µM, 48 h).
The inhibition of COc1cccc(OCCN2CCC[C@H](CN3CCc4cc(OC)c(OC)cc4CC3=O)C2)c1 is reported as 90.6% (mouse VTA dopamine neurons; firing rate, cell-attached recording; 750 µM, 3 min).
CCC(=C(c1ccc(Cl)cc1)c1ccc(OCCN(CC)CC)cc1)c1ccc(OC)cc1 — result for “alkaline phosphatase activity”: 1.32 ± 0.25 (Ishikawa; estrogenic activity, agonist; 10 nM, 72 h, unit not given; relative to: DMSO).
COc1cc(CNC(=O)C[C@H](C)CCC=C(C)C)ccc1OCc1cn(-c2cccc([N+](=O)[O-])c2)nn1 has a growth percent of 95.9% (SK-OV-3 ovarian cancer cells; SRB; 10 µM, 48 h).
COc1ccc([C@@H]2CC(=O)c3c(O)cc(O[C@@H]4O[C@H](CO[C@@H]5O[C@@H](C)[C@H](O)[C@@H](O)[C@H]5O)[C@@H](O[C@H]5O[C@H](CO)[C@@H](O)[C@H](O)[C@H]5O)[C@H](O)[C@H]4O)cc3O2)cc1O has a cell count of 8330 ± 712 (MRC5; trypan blue exclusion; 150 µg/mL, 48 h).
With COc1cc(CNC(=O)C[C@H](C)CCC=C(C)C)ccc1OCc1cn(-c2ccc(Cl)cc2Cl)nn1 the growth percent was 93.1% (KM12; SRB; 10 µM, 48 h).
Under inhibition, CCCCCCCCCCCCCCCC(=O)N[C@@H](CCCCN)C(=O)N[C@@H](CCCCN)C(=O)N[C@@H](CO)C(=O)N[C@@H](CCCNC(=N)N)C(=O)N[C@@H](C)C(=O)N[C@@H](CC(C)C)C(=O)N[C@@H](Cc1ccccc1)C(N)=O is recorded as “inactive” (human gel-filtered platelets; platelet aggregation; concentration not given, with: ristocetin 1 mg/mL).

Some of these lines once more:
COc1cc(CNC(=O)C[C@H](C)CCC=C(C)C)ccc1OCc1cn(-c2ccc([N+](=O)[O-])cc2)nn1 gave a growth percent of 80.1% (SK-OV-3 ovarian cancer cells; SRB; 10 µM, 48 h).
